Experimental data collected from several papers.
Parts stem from different laboratories: compare values within a part only.

Sample 1
Target: RING finger protein unkempt homolog, zinc fingers 1-6, GST-SBP tag (UNK, Homo sapiens, UniProt Q9C0B0, residues 30-357)
Method: RNA Bind-n-Seq
Form: RNA
Sample: in vitro
Tested at: not given
Notes: RNA with constant flanks, human and mouse sites, ends assumed
Baseline: input RNA pool
Reading: higher = stronger binding
Residues (chain): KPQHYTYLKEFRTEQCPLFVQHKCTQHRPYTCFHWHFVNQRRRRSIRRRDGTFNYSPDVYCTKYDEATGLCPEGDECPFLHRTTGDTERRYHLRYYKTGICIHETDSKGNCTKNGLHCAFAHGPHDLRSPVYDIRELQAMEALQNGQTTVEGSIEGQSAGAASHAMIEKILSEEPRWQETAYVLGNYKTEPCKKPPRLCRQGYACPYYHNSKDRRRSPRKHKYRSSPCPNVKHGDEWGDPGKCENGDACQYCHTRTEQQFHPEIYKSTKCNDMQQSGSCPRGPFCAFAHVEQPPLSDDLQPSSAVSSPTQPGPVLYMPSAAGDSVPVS
With `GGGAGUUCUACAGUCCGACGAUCGCCUUGGAGUAGGUGGCAUAACCUUGUGCACAGAGAACUAGAAAAGGGGCAGAACCCCGGCCUUGCAGUUGUGGCAGGUUUCCACUGUGGUAAGCUAGGUUCAUUCCUCAUCAAGGAAUGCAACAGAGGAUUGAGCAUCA` the bound/input enrichment was 0.197 ratio.
For `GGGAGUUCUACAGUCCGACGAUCGCUGCAAUCUAUAAUUCAUUUGUGUGAAAAGACAAAAUUACCAAUGACUUGAGUUCAGAGAUCCUAACAUAGCUAGGUGCUAUGGUGCAGACCCAUACCCACGGUCCCAGAUAAUUGAAACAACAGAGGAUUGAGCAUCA`, the bound/input enrichment was 0.241 ratio.
With `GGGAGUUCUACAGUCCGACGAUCUUUCGUUCCAAUUUUUGUGAAUUUAUUGGAGUCCUGAUUCGACAGUGUCAAUAUAGCAUAAUUUAUGAUGAAUAUAUGAUGGACACCGUAAUUUCCCUUUUGACUGGUUUGUCAGACUCCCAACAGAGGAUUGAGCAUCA` the bound/input enrichment was 0.776 ratio.
For `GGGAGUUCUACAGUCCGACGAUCUUGCUUGAGAUGAACCUUAUGCACGCACCUCAAGUUGCAGAUGCCAUUCUCGGGAAUCAGAUGUUCACCCACUAUGACCGGGCUCAUAUCGCCCAGCUGUGUGAGAAGGCGGGCCUGCUGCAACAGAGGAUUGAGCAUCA`, the bound/input enrichment was 0.0877 ratio.
`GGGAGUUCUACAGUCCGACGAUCAUGAUGUGUAUUGCUGGGAUUGGACUCGUUGUGUUAUUCUUCAGUUGGAUGCUCUCUAUCUUUCGAUCAAAAUACCAUGGCUAUCCAUACAGCUUUCUGAUGAGUUAAAGAGGAUUCCAGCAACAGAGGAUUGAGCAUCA` has a bound/input enrichment of 0.087 ratio.
For `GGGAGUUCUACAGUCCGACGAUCAAAGCCCUGUGAAGGUCUACUGACCGCUCACUAUUGUCUGGUAUCUGUAAACACUUCUGUUUAGUCCUUUCAUGGUAUAAUUGAUGUUCUUUAAAACUGUCAGUGUAAAACAGGGCUUAUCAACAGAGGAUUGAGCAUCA`, the bound/input enrichment was 14.9 ratio.
`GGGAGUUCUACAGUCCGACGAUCUCUGCCACCCCGAGGAGCAGCAGCUCAGCUUCAUCGAGCGCCUGGUGGAGAUGGCCAGCAGCCUGGCCAUCCGCGAGUGGCGGCGGCUGCCCCACGUAGUGUCCCACGUGCACACGCCUCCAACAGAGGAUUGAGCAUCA` gave a bound/input enrichment of 0.0572 ratio.
`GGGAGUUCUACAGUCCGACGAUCGCCCAUGAGAAGCUAGACAAUAAGAAGGAGUGUUUAGAAGACGUCACUGCUGUGUGUAUAUUAGAAGGGUUUCAAAAUGAGCAGAGCAUGCUGUUAGCUGAUAAAGUUCUUAAACUUCUUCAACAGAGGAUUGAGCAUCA` gave a bound/input enrichment of 0.571 ratio.
For `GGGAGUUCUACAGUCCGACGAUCUGCUUUCCCCUCUCUCCUGGUUGCUUCUCCCUUUUUUUUCCCUUUCCUUUUUACUUUUUUUUUUUUUUUUGCAGUGUCCCCAUUCUGAUUCUCGCUCUGUCGACGGCACUGUUGGUGCCACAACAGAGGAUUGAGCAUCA`, the bound/input enrichment was 3.43 ratio.

Sample 2
Target: Ras GTPase-activating protein-binding protein 1, full length (G3BP1, Homo sapiens, UniProt Q13283)
Sequence of UniProt Q13283 (whole entry, looked up): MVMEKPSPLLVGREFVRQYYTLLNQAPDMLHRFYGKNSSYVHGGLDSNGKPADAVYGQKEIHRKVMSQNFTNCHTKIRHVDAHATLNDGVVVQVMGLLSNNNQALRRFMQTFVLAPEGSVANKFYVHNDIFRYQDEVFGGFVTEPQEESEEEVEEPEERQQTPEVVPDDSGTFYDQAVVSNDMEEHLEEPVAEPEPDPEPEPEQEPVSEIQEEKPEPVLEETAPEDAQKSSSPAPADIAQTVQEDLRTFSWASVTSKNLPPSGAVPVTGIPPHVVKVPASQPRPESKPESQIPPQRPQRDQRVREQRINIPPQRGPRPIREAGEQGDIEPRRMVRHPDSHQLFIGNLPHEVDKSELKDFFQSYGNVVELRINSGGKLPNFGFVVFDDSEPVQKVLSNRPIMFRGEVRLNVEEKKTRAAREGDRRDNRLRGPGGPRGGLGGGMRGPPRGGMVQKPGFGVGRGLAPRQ
Method: RNA Bind-n-Seq
Form: RNA
Sample: in vitro
Tested at: 200 nM
Notes: whole 134-nt RNA, ends assumed
Added: 150 mM KCl
Baseline: input library
Reading: higher = stronger binding
`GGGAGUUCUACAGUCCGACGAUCACCAUGCAGGUGGGCAUCUUUGGGAAGUGGGGCAAGGAAAGGAUAGGGAGGGGGGUAACACUUUGGGAACAGGUGGUCCCAGGUCGUUUCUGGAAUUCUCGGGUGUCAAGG` has a log2 enrichment of 1.01.
For `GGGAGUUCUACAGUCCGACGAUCAGUCCUGUGCUACACAUCGUAUGUACCGAAUCGGGUUUGGGUUUUUUUGGGAAAGGGAAAGUAUUAUGUUACGCCGUUCGGAUCUGCACUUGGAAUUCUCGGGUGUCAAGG`, the log2 enrichment was -0.049.
For `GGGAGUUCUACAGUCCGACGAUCCCUGUGCUACACAUCGUAUGUACCGAAUCGGGUUUUUGGGAAAAAAAGGGAAAAAAAGGGAAAGUAUUAUGUUACGCCGUUCGGAUCUGCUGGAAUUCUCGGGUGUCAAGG`, the log2 enrichment was -0.833.
With `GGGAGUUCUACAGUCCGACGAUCUUAAGACAGUCAUUUUAAAAUGGUGGCUGAAUUUCCCAACCCACCCCCAAACUAAACACUAAGUUUAAUUUUCAGCUCCUCUGUUGGACAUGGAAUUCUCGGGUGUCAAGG` the log2 enrichment was 0.311.
With `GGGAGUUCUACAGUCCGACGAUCCAAGUCCUGUGCUACACAUCGUAUGUACCGAAUCGGGCCCGGCCCGGGGCCCGGGAAAGUAUUAUGUUACGCCGUUCGGAUCUGCACUUCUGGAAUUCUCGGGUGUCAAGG` the log2 enrichment was -0.702.
`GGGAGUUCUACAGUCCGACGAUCAGUCCUGUGCUACACAUCGUAUGUACCGAAUCGGGAGGGUUUUUUUGGGAAAAAGGGAAAGUAUUAUGUUACGCCGUUCGGAUCUGCACUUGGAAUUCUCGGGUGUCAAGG` gave a log2 enrichment of -0.263.
For `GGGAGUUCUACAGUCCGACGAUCUAACUUUAGAGGAGGAUCUGAUGGAUAUGGCAGUGGACGUGGAUUUGGGGAUGGCUAUAAUGGGUAUGUAGGAGGACCUGGAGGUGGCAAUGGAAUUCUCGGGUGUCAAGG`, the log2 enrichment was 0.232.
For `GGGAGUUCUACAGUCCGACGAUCGGUAAACGCCCUGCAGAAGAUAUGGAAGAGGAACAAGCAUUUAAAAGAUCUAGAAACACUGAUGAGAUGGUUGAAUUACGCAUUCUGCUUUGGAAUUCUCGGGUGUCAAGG`, the log2 enrichment was -0.14.
`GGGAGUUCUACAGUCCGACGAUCCACAGACAACACGCACCCACACAGACACAGAGGGAAGGGGUUGGGAUGGGGACAGGGUGCACAGAAGGGCGGGGUAGGACCCCAGCCCCUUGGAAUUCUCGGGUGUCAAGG` has a log2 enrichment of 1.83.
`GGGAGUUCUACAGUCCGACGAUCUCAUUGCAUGAAAAGUGGAAAAGUUUAGAUCUAUGGAAACAGAACUGUUGCCUAUAUGGAAAAUCAGUGCCUUGUGGCAAUACAGGUAAGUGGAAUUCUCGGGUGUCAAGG` has a log2 enrichment of -1.87.
`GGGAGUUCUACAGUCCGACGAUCCCUGUGCUACACAUCGUAUGUACCGAAUCGGGGAAAAAAAGGGGUUUUUGGGGAAAGGGGAAAGUAUUAUGUUACGCCGUUCGGAUCUGCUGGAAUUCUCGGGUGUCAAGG` has a log2 enrichment of 0.389.
With `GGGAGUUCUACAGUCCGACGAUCCACAGACAACACGCACCCACACAGACACAGAGGGAAGGGGUUGGGAUGGGGACAGGGUGCACAGCAGGGCGGGGUAGGACCCCAGCCCCGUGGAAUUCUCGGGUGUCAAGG` the log2 enrichment was 1.86.
The log2 enrichment of `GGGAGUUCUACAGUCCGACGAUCGCAGGAAGUAAAAACAAAUGGAAAUGCUUCGGAUAGUGGCAGGCGUGGGGGUUGCUAAGGAAAGGGUGGGAUGGGAGUGGGUAAAGAGUUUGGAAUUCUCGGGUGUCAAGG` is reported as 0.941.
`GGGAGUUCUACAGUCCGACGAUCGGGUGGACACUGACGAGCUGGACAGCAACGUGGACGACUGGGAAGAGGAGACCAUUGAGUUCUUCGUCACUGAAGAAAUCAUUCCCCUCGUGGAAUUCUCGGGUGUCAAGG` has a log2 enrichment of -0.917.

Sample 3
Target: Histone acetyltransferase KAT6A, winged helix 1, GST fusion (KAT6A, Homo sapiens, UniProt Q92794, residues 1-85)
Method: protein binding microarray
Form: double-stranded DNA, one strand shown
Sample: in vitro
Tested at: not given
Notes: 8-mer, flanks averaged, mean of 2 arrays, mostly near background
Baseline: not given
Reading: higher = stronger binding
Target sequence (chain): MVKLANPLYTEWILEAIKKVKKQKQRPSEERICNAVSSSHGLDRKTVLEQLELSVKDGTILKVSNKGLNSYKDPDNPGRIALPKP
`ATGGTGCG` has an E-score of 0.0428.
`CCCGGAGC` gave an E-score of 0.152.
`GTAGAGAA` gave an E-score of -0.0786.
`TATGAAAA` gave an E-score of -0.048.
The E-score of `AGGGCTCG` is reported as 0.109.
For `CATCATAA`, the E-score was -0.0856.
For `CGGCATAA`, the E-score was 0.23.
With `CATTGACA` the E-score was -0.0447.
The E-score of `TACATCCA` is reported as -0.135.

Other studies, line by line
`PhoQ, residues 284 288 289 292 302 303 SSLVEF` gave a fold induction of 5.2 (PhoP, residues 12 14 15 18 19 LHATL (Escherichia coli, UniProt P23836); Sort-seq, measured: YFP reporter; E. coli; PhoQ-PhoP variant library, added: 10 µM Mg2+; baseline: high Mg2+ state, higher = stronger signaling).

Repeated from above (sample 1):
For `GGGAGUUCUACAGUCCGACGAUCUGCUUUCCCCUCUCUCCUGGUUGCUUCUCCCUUUUUUUUCCCUUUCCUUUUUACUUUUUUUUUUUUUUUUGCAGUGUCCCCAUUCUGAUUCUCGCUCUGUCGACGGCACUGUUGGUGCCACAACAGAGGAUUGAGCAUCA`, the bound/input enrichment was 3.43 ratio.
With `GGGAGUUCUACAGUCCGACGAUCGCCUUGGAGUAGGUGGCAUAACCUUGUGCACAGAGAACUAGAAAAGGGGCAGAACCCCGGCCUUGCAGUUGUGGCAGGUUUCCACUGUGGUAAGCUAGGUUCAUUCCUCAUCAAGGAAUGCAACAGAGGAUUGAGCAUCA` the bound/input enrichment was 0.197 ratio.
`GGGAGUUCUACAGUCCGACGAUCGCCCAUGAGAAGCUAGACAAUAAGAAGGAGUGUUUAGAAGACGUCACUGCUGUGUGUAUAUUAGAAGGGUUUCAAAAUGAGCAGAGCAUGCUGUUAGCUGAUAAAGUUCUUAAACUUCUUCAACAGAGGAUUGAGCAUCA` gave a bound/input enrichment of 0.571 ratio.
`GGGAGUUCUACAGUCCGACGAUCAUGAUGUGUAUUGCUGGGAUUGGACUCGUUGUGUUAUUCUUCAGUUGGAUGCUCUCUAUCUUUCGAUCAAAAUACCAUGGCUAUCCAUACAGCUUUCUGAUGAGUUAAAGAGGAUUCCAGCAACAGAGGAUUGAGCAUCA` has a bound/input enrichment of 0.087 ratio.
